Published values gathered from unrelated publications.
Compare with care: the assays were run in different laboratories. “And” joins repeats or separate records; there may be more than shown. ± gives the spread as reported.

O=C(C[Se]C(=O)c1ccc2ccccc2n1)Nc1cccc(C(F)(F)F)c1  mean growth percent (NCI60 breast subpanel; cell growth; 10 µM, 48 h, one-dose): -76.7%
Cc1ncsc1-c1ccc(C(C)NC(=O)C2CC(O)CN2C(=O)C(NC(=O)CCCCCCCCCCN2CCCC(Nc3ncc(Cl)c(Nc4ccccc4S(=O)(=O)C(C)C)n3)C2)C(C)(C)C)cc1 (centres unmarked)  log2 fold change (22Rv1; RNA-seq, refers to: RPAP2 mRNA; concentration not given; reference: DMSO): -1.23
CC(C)(C)c1cc(-c2ccc3cccnc3n2)nc(-c2ccc3cccnc3n2)c1.[Cl-].[Cl-].[Ru+2].c1ccc2cc3nc4c5cccnc5c5ncccc5c4nc3cc2c1  EC50 (B16-F10; resazurin; added: light 523 nm, 20 mW, 100 J/cm2): 2170 nM
CC(=O)NCC(=O)N[C@@H](Cc1ccccc1)C(=O)N[C@@H](Cc1ccccc1)C(=O)N[C@@H](Cc1ccc(O)cc1)C(=O)NCC(=O)N[C@@H](Cc1ccc(O)cc1)C(=O)NCC(=O)N[C@@H](CO)C(=O)N[C@@H](CO)C(=O)N[C@@H](CO)C(=O)N[C@@H](CCCNC(=N)N)C(=O)N[C@@H](CCCNC(=N)N)C(=O)N[C@@H](C)C(=O)N1CCC[C@H]1C(=O)N[C@@H](CCC(N)=O)C(=O)N[C@H](C(=O)O)[C@@H](C)O  AKT phosphorylation (mouse dermal papilla cells; western blot; 100 nM): increased
CC(C)(C)c1cc(-c2ccc3cc4ccccc4nc3n2)nc(-c2ccc3cc4ccccc4nc3n2)c1.Cc1ccncc1.[Cl-].[Cl-].[Ru+2].c1ccc2cc3nc4c5cccnc5c5ncccc5c4nc3cc2c1  phototoxicity index (B16-F10; resazurin; added: light 523 nm, 100 J/cm2; reference: dark EC50 over light EC50): 4
C[C@@H]1Cc2c([nH]c3ccccc23)[C@@H](c2c(F)cc(/C=C/C(=O)O)cc2F)N1C12CC(C1)C2  log2 fold change (MCF7; RNA-seq, refers to: NOS1AP mRNA; 1 µM, 24 h, E2-induced gene; reference: DMSO vehicle): -1.12
CN1CCCNC(=O)c2cccc(c2)C(=O)NCCCN(C)CCCNc2cccc3c2C(=O)c2cccc(c2C3=O)NCCC1  log2 fold change (SAS; RNA-seq, refers to: MT-ND4 mRNA; 1 µM, 6 h; reference: untreated cells): -2.01
Cc1nc(Nc2ncc(C(=O)Nc3c(C)cccc3Cl)s2)cc(N2CCN(C(=O)CN)CC2)n1  early apoptotic cells (KU812; flow cytometry; concentration not given, 3 h): 10.4% and 9.14% and 10.7%
O=C(C[Se]C(=O)c1ccccc1Nc1cccc(C(F)(F)F)c1)Nc1cccc(C(F)(F)F)c1  GI50 (NCI60 breast subpanel; NCI60 five-dose screen): 1680 nM
Cc1cc(Cl)cc(-c2ccnc3cc(CN4C(=O)C5C(C4=O)C5(C)C)sc23)c1C[C@@H]1CNCCO1 (some centres unmarked)  G2/M phase cells (CHP-212 parental; PI flow cytometry; 1 µM, 24 h): 13.9%
Cn1ncc2cc(-c3cncc(Cl)c3N3CCC4(CCNC4=O)CC3)ccc21  fold change in expression (LS174T; microarray, refers to: CXCL8; concentration not given, 4 h, gene set IL-8; reference: untreated cells): -4.69
CO[C@@H]1[C@@H](OC(N)=O)[C@@H](O)[C@H](Oc2ccc3c(O)c(NC(=O)c4ccc(O)c(CC=C(C)C)c4)c(=O)oc3c2C)OC1(C)C  colony survival (DLD-1 BRCA2-/-; 300 µM, replicate B; reference: untreated): 0.312%
CCN(CC)CC(=O)Nc1cccc(-n2cc(-c3ccc4ccc(-c5cn(-c6cccc(NC(=O)CN(CC)CC)c6)nn5)cc4c3)nn2)c1  fold regulation (RCC4; PCR angiogenesis array, refers to: SERPINF1; 5 x IC50, 4 h, normoxia; reference: untreated): -1.3
CNS(=O)(=O)Nc1nccc(Cc2c(C)c3ccc(Oc4ncccc4F)cc3oc2=O)c1F  IC50 (SUP-T1; cell viability; 7 days): > 1000 nM
C=C(NC(=O)c1csc(-c2ccc(NC(=O)CCCCCBr)cc2)n1)C(=O)NC(=C)C(=O)OC  EC50 (OCI; cell viability): 800 nM
CCCCCCCCCCCCCCCC(=O)OCC(CSC[C@H](N)C(=O)N[C@@H](CO)C(=O)N[C@@H](CCCCN)C(=O)N[C@@H](CCCCN)C(=O)N[C@@H](CCCCN)C(=O)N[C@@H](CCCCN)C(=O)NCCCCCC(=O)N[C@@H](CCCCN)C(=O)N[C@@H](CC(C)C)C(=O)N[C@H](C(=O)N[C@@H](Cc1ccccc1)C(=O)N[C@@H](Cc1ccccc1)C(=O)N[C@@H](Cc1ccc2ccccc2c1)C(=O)O)C(C)C)OC(=O)CCCCCCCCCCCCCCC (some centres unmarked)  mRNA level (BV-2; RNA-seq, refers to: Csf2; concentration not given): 2.5 FPKM and 4.55 FPKM and 2.84 FPKM
CC(C)c1ccc(N(C)c2ccc3c(c2)OCC[C@H]3CNc2cnccc2C(=O)O)cc1  IC50 (NCI-H358; cell viability, CellTiter-Glo; 7 days): 6.57 nM
CCOc1cncc(-c2ccc(NC(=O)C3(c4ccnc(NS(=O)(=O)C5CC5)n4)CCOCC3)nc2)n1  IC50 (LP-1; cell growth or viability, ATP luminescence; 72 h): 164 nM
CSC(=NN=C(C)c1ccc(S(=O)(=O)N2CCC(C)CC2)cc1)N(C)C  cells in S phase (HCT-116; flow cytometry; 3.66 µM (IC50), 72 h): 31.5%
CCN(C(=O)c1cc(F)ccc1Oc1nncnc1N1CCC2(C1)CN([C@H](CCCN(C)CCOC)C(C)C)C2)C(C)C  GI50 (5637; cell growth; 168 h): > 10000 nM
C=CC(=O)N1CCCC(n2c(=O)c3ncccc3n(Cc3ccc(Oc4ccccc4)cc3)c2=O)C1 (centres unmarked)  log2 fold change (Rec1; refers to: CAST; concentration not given; reference: untreated): 0.26
Cc1ccncc1.[Cl-].[Cl-].[Ru+2].c1cc(-c2ccc3cccnc3n2)nc(-c2ccc3cccnc3n2)c1.c1ccc2cc3nc4c5cccnc5c5ncccc5c4nc3cc2c1  EC50 (B16-F10; cell viability; light 633 nm, 100 J/cm2): 2120 ± 80 nM
Cc1nc(NCCOCCOCCNc2ncc(C(=O)NC3=NN(c4ccc(Cl)c(Cl)c4)CC3)c(C)n2)ncc1C(=O)NC1=NN(c2ccc(Cl)c(Cl)c2)CC1  EC50 (KCL-22; cell growth or viability, ATP luminescence; 72 h): 57 nM

For quick reference, copied from above:
CCN(CC)CC(=O)Nc1cccc(-n2cc(-c3ccc4ccc(-c5cn(-c6cccc(NC(=O)CN(CC)CC)c6)nn5)cc4c3)nn2)c1  fold regulation (RCC4; PCR angiogenesis array, refers to: SERPINF1; 5 x IC50, 4 h, normoxia; reference: untreated): -1.3
